Assay results gathered from unrelated publications.
Each numbered part is a random draw from the data of one study; scales do not carry over between parts.

Series 1 — technique: protein-binding microarray; form: double-stranded DNA, one strand shown; matrix: in vitro; tested at: 250 nM; notes: 60-bp whole probe; together with: salmon DNA 0.4 mg/ml; relative to: random background probes; reading: higher = stronger binding; all sequences stand within: GCCTAGCAC … GTCTTGATTCGCTTGACGCTGCTG
Target: Interferon regulatory factor 7, full length, phosphomimetic (IRF7, Homo sapiens, UniProt Q92985, residues 1-503, S101K/S471D/S472D/S475D/S476D/S477D/S483D/S484D/S487D)
Residues (chain): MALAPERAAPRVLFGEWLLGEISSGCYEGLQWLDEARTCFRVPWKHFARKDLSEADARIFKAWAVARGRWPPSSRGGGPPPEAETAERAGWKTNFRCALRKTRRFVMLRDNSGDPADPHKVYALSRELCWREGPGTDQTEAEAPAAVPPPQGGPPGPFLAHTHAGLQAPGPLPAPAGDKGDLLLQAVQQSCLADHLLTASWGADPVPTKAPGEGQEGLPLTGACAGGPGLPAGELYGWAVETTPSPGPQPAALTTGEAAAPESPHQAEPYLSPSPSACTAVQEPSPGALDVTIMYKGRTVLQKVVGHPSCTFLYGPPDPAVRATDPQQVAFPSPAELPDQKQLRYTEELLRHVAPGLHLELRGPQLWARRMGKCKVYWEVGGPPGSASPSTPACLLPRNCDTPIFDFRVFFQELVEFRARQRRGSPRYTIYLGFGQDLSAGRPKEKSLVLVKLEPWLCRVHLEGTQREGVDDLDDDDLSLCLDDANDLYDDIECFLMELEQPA
| Strand | log fluorescence [z-score] |
| --- | --- |
| GACGGTTTCGGTATGGGGACGTGCTAG | 10.2 |
| TCAAGAATAATTTTTTAGACTGTGCTA | -0.441 |
| TCAGATTTCAGGAATTGAACTGTGCTA | -0.0798 |
| TGAGGTATCGGACTGGGTTAGTGCTAG | -0.411 |
| GCATTTTTTTTTTCTACTTCGTGCTAG | 1.45 |
| TTAGGTATCAGTCTCGATTAGTGCTAG | 1.45 |
| GACCAACTGGGGTTTCGAGACGTGCTA | 2.16 |
| GACGATTTCGGGTCTCGAGACGTGCTA | 1.51 |
| TTAGGTTTCCTTCTCCTTCAGTGCTAG | 2.32 |
| AACGGTATCCTTTTCCTGACGTGCTAG | 1.06 |
| GACGGGCTGGGTATCGGGACGTGCTAG | -0.862 |
| TTAGATATTAAACTGATAGGGTGCTAG | 0.147 |
| GGATGTGTCTTAAATAGGGCAGTGCTA | -0.402 |
| TCAGGTTTCGGTATCGGTTAGTGCTAG | 11.6 |
| GACGAACTGGGGTTACGAGACGTGCTA | -0.521 |
| TTAGGTTCCGGTTTCGTTTAGTGCTAG | 11.8 |
| TTAGAACTGAGTATCTATTAGTGCTAG | -0.0222 |
| TTGGGACTGGACTTTCGGTTAGTGCTA | 0.0544 |
| TCACAAATGCCCTCTCCAACTGTGCTA | -0.236 |
| TTAGGTATCGACACTGTGTTAGTGCTA | 0.0886 |
| TTAGATCTCAGTTTCGGTTAGTGCTAG | 8.24 |
| ATGAAATGCCACACACACACGTGCTAG | -0.255 |
| CTAGGACTGGGGACTGGGTTAGTGCTA | -0.394 |
| GGTGGGGTGCAGCAGGGCCAGTGCTAG | -1.39 |
| CCAGAGTCCTGTTTGATAATGTGCTAG | 0.616 |

Series 2 — technique: protein-binding microarray; form: hairpin DNA; matrix: in vitro; tested at: not given; relative to: not given; reading: higher = stronger binding
Target: Hepatocyte nuclear factor 3-beta, forkhead domain (FOXA2, Homo sapiens, UniProt Q9Y261, residues 142-269)
Notes: whole hairpin DNA, median over replicate spots
Construct (chain): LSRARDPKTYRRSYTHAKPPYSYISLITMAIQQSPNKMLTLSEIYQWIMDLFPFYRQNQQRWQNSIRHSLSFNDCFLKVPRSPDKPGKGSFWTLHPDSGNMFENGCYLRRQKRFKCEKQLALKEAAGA
| Strand | median fluorescence [a.u.] |
| --- | --- |
| GAGGCCATCTAACCAACGCCTCCTGGCGTTGGTTAGATGGCCTCACACTC | 3010 |
| GAGGCCGTGTAAACAACGCCTCCTGGCGTTGTTTACACGGCCTCACACTC | 5140 |
| GAGGCCATGTCGACAACGCCTCCTGGCGTTGTCGACATGGCCTCACACTC (5mC at 11 33) | 3360 |
| GAGGCCATGTAACCAGCGCCTCCTGGCGCTGGTTACATGGCCTCACACTC (5mC at 29) | 3410 |
| GAGGCCATGGAACCAACGCCTCCTGGCGTTGGTTCCATGGCCTCACACTC (5mC at 35) | 3300 |
| GAGGCCATGTAACCACGGCCTCCTGGCCGTGGTTACATGGCCTCACACTC (5mC at 28) | 3230 |
| GAGGCCATGCAAACCGCGCCTCCTGGCGCGGTTTGCATGGCCTCACACTC (5mC at 15 29) | 3530 |
| GAGGCCATGTCGCCAACGCCTCCTGGCGTTGGCGACATGGCCTCACACTC (5mC at 33) | 3500 |
| GAGGCCTTGTAAACAACGCCTCCTGGCGTTGTTTACAAGGCCTCACACTC | 3430 |
| GAGGCCATGTAAACATCGCCTCCTGGCGATGTTTACATGGCCTCACACTC | 4160 |

Series 3 — technique: RNA Bind-n-Seq; form: RNA; matrix: in vitro; tested at: 365 nM; relative to: no-protein control; reading: higher = stronger binding
Target: RNA binding protein fox-1 homolog 2, RRM domain, GST-SBP tag (RBFOX2, Homo sapiens, UniProt O43251-10, residues 100-194)
Notes: natural RNA segment, single round, ends assumed
Construct (chain): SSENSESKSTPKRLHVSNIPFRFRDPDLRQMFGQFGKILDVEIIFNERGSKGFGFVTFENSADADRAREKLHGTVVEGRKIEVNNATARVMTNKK
| Strand | RBNS enrichment (R) |
| --- | --- |
| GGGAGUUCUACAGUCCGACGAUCGUCCCGGGCUGCUUUGUAGUGAGCCUGUUUCCACUGCUCUGGUAGCUGAGCCAGGCUAUGAGGAAACCCUGGAUAUCAGCAUAAACCUAUGUCUGGGACUACGAUCCCUUUGGAAUUCUCGGGUGCCAA | 0.545 |
| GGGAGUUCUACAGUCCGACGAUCUUUCUUUGAGUGACCGUCUGUGCAGGCCCUGUAGUCCGCCACAGGGCUCUGAGCUGCACUGGCCCCGGUGCUGGCAUCUGGUGGAGCGGACCCACUCCCCUCACAUUCCAUGGAAUUCUCGGGUGCCAA | 0.184 |
| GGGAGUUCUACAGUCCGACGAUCGGCAGGAACCACUCUGGCUGUCCAGGGGCUCCUGAAAUCUUCUGGUCAUCUACAAAGGGUAACAGGAAGGGAGUUAACGAGGAUGGUGGGAUUCGGUUGAAGGUGCCUGGUGGAAUUCUCGGGUGCCAA | 0.684 |
| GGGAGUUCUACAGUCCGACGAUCUGUGGGUCUCUCCAGUAAGAAAGAUGCUAAAAGUUUUGUGCACUUUUUGUGUGUGUAAUGCAAAUUAGUUAAAACAAAUAGUUUUGGAGAAAGUUAAAACUAGCUUUAGAUGGAAUUCUCGGGUGCCAA | 0.622 |
| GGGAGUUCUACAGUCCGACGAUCUGGGCUUGUUCUUCAUGCCUAACUUAAUAAUUUUUAAGAGAUUAAAGUGCCAGAUGGAGUUUAAAUAUUGAAAUUAUUUUAAAAGGUAGGUGUCUUUAAGAAAAUAACAAUGGAAUUCUCGGGUGCCAA | 0.452 |
| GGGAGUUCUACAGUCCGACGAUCUGCUUCGUGUGUGUCCCCACACAACACACACUUAAAGCCAUCUGUCACUCUGUAAGUUAUUUUGUACAUUCUCUACUCUUAAAAGUGUCCCCCAGUCAGUUCCUUUAACAUGGAAUUCUCGGGUGCCAA | 0.388 |
| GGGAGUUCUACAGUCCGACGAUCGAAAAAAUUCUAACAGCUGUUAGUUUUGUAAUUAAAAAGGAACAAAAAUAAAAAGUUUGUCCUGAACCUUUUACAGAUUUGCCAUAACAGCAUUAAAGUGAUUGAACAGAUGGAAUUCUCGGGUGCCAA | 0.337 |
| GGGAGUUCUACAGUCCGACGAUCGAAAACUUGAGACUCCCAAGUUCUGGGCCAGCCCAUUGCUCUGGGCUGUUUUAAAGCCCAUUUCACGAGGAACAAAGAUUUACUUCCUGUCCUGCCAUUCGUGUGCUUCCUGGAAUUCUCGGGUGCCAA | 0.311 |
| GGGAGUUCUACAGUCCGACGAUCCUGUUAAAUUGCAGUACGUGUUAUAGACCACUCAGAUCAAGCCUCUACUCCCUCUGAGAGUUUUCAACAUCAGUUGAUUGAGCUUCAGGCUUUCCAACGUUAUCCCUGUAUGGAAUUCUCGGGUGCCAA | 0.315 |
| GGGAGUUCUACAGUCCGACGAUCGGAUUCUAGGGCCCAGGGACUGAUGGCCCAGGAUCUCCGUUGGCACAGAGGCCCAGCCCCAGCAUCACCUCCAGGACCCCAGCUGCUCUAAGUCCAGGACCUCUACCCUGUGGAAUUCUCGGGUGCCAA | 0.786 |
| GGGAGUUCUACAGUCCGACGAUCAACUGAUAUUCAAAAUAUUAAACAUUUGUUAUUUUGUAUAAACCUUUAAGUAAAAAUAUGCUGUUUUAAUAUUUAAUUUAGUAGAAUUAACAAAAACUUUUUAAUAGUCAUGGAAUUCUCGGGUGCCAA | 1.19 |
| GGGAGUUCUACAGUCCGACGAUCAGAUGUUCUAAGUCUUUCCAUUGGAUCUCAUUGGACCCUUCCAUGGUGUGAUCGUCUGACUGGUGUUAUCACCGUGGGCUCCCUGACUGGGAGUUGAUCGCCUUUCCCAGUGGAAUUCUCGGGUGCCAA | 0.395 |

Series 4 — technique: aptamer microarray, sandwich; form: DNA with 2'F-ANA; matrix: in vitro; tested at: 200 nM; together with: Cy3 exosite-II aptamer, 400 nM; reading: higher = stronger binding; strand: GGTTGGTGTGGTTGG
Target: Prothrombin, mature alpha-thrombin (F2, Homo sapiens, UniProt P00734)
Notes: whole 15-mer aptamer, many near background
| Modification | mean fluorescence intensity [a.u.] |
| --- | --- |
| 2'F-ANA at 1 2 3 7 8 9 | 238 |
| 2'F-ANA at 1 2 4 6 7 8 11 12 13 | 188 |
| 2'F-ANA at 2 3 4 5 6 8 11 | 86.1 |
| 2'F-ANA at 3 7 8 9 10 12 | 669 |
| 2'F-ANA at 2 3 5 7 9 13 14 15 | 50.6 |
| 2'F-ANA at 1 2 4 5 10 11 12 15 | 71.2 |
| 2'F-ANA at 2 4 5 6 7 8 10 12 13 15 | 54.4 |
| 2'F-ANA at 1 4 5 7 8 9 10 11 12 13 14 15 | 54.4 |
| 2'F-ANA at 1 2 3 4 10 13 15 | 59.5 |
| 2'F-ANA at 1 5 6 7 12 14 | 53.5 |
| 2'F-ANA at 2 3 6 9 10 14 | 286 |
| 2'F-ANA at 5 6 11 14 15 | 75.9 |
| 2'F-ANA at 1 5 6 8 9 10 11 12 13 | 47.7 |
| 2'F-ANA at 5 7 9 15 | 77.7 |
| 2'F-ANA at 1 2 3 5 6 8 11 13 14 15 | 58.5 |
| 2'F-ANA at 2 6 7 8 9 10 13 | 129 |
| 2'F-ANA at 1 5 7 8 11 14 15 | 55.7 |
| 2'F-ANA at 1 2 3 5 7 10 12 13 14 15 | 46.1 |
| 2'F-ANA at 2 3 5 6 9 12 | 205 |
| 2'F-ANA at 5 8 9 10 15 | 47.4 |
| 2'F-ANA at 1 2 4 8 11 12 13 | 186 |
| 2'F-ANA at 1 2 3 4 5 8 9 11 12 13 15 | 70.2 |
| 2'F-ANA at 3 6 7 9 12 | 1110 |
| 2'F-ANA at 1 3 4 5 6 7 12 13 14 15 | 49.3 |
| 2'F-ANA at 1 2 5 7 8 10 11 13 14 15 | 103 |

A few entries again (series 3):
| Strand | RBNS enrichment (R) |
| --- | --- |
| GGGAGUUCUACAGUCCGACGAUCUGUGGGUCUCUCCAGUAAGAAAGAUGCUAAAAGUUUUGUGCACUUUUUGUGUGUGUAAUGCAAAUUAGUUAAAACAAAUAGUUUUGGAGAAAGUUAAAACUAGCUUUAGAUGGAAUUCUCGGGUGCCAA | 0.622 |
| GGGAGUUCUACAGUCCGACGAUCUGGGCUUGUUCUUCAUGCCUAACUUAAUAAUUUUUAAGAGAUUAAAGUGCCAGAUGGAGUUUAAAUAUUGAAAUUAUUUUAAAAGGUAGGUGUCUUUAAGAAAAUAACAAUGGAAUUCUCGGGUGCCAA | 0.452 |
| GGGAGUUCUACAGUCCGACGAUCUGCUUCGUGUGUGUCCCCACACAACACACACUUAAAGCCAUCUGUCACUCUGUAAGUUAUUUUGUACAUUCUCUACUCUUAAAAGUGUCCCCCAGUCAGUUCCUUUAACAUGGAAUUCUCGGGUGCCAA | 0.388 |
| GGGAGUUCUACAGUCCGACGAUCGAAAAAAUUCUAACAGCUGUUAGUUUUGUAAUUAAAAAGGAACAAAAAUAAAAAGUUUGUCCUGAACCUUUUACAGAUUUGCCAUAACAGCAUUAAAGUGAUUGAACAGAUGGAAUUCUCGGGUGCCAA | 0.337 |
| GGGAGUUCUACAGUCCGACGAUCGAAAACUUGAGACUCCCAAGUUCUGGGCCAGCCCAUUGCUCUGGGCUGUUUUAAAGCCCAUUUCACGAGGAACAAAGAUUUACUUCCUGUCCUGCCAUUCGUGUGCUUCCUGGAAUUCUCGGGUGCCAA | 0.311 |
